# Measured values collected from several papers.
# Each numbered part is a random draw from the data of one study; scales do not carry over between parts.

# Set 1
# Target: Phosphate system positive regulatory protein PHO4, full length, GST-tagged (PHO4, Saccharomyces cerevisiae, UniProt P07270, residues 1-312)
# Technique: competition protein-binding microarray
# Form: double-stranded DNA, one strand shown
# Matrix: in vitro
# Tested at: 2 µM
# Setting: whole 60-bp probe, lowest competitor level
# Together with: Cbf1 competitor, 0.05 µM
# Reading: higher = stronger binding
# Shared flanks, not repeated: … GTCTTGATTCGCTTGACGCTGCTG
# Residues (chain): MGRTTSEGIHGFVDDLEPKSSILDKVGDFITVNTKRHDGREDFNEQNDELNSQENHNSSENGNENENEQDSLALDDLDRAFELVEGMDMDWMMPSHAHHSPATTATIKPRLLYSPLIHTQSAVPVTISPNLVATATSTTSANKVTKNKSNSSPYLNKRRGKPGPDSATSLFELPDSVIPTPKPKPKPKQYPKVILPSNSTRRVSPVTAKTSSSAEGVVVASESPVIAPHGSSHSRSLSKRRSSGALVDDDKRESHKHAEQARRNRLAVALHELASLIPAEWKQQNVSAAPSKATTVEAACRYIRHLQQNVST
Strand,fluorescence intensity [a.u.]
TCAAGTGGGGTAGGACACGGGACTTCAGGTCCTCCT,6800
CGGGGTTAAGTTTGAGTTGTGGGTGGCTTGCAGCAG,4560
ATATACATACACACATACATGCAAGCACATACATCC,9140
CTAACGAAGGTTTGCTGCGTGGGTGACAAGCCAAGT,8340
ATGTATTACCTAACTCAGGTGATGGAGTGCTCAGAG,4630
CCTAATGCTGAAAAGCCCGTGCTTTTCCATTCTGCG,9790
AAATTACTAAGTTGCTATGTGGGTGACGCCGTATGA,4630
ACCAGACGGAGTTTGCACGGGAGTGTTGTTGGGCGC,6180

# Set 2
# Target: Prothrombin, mature alpha-thrombin (F2, Homo sapiens, UniProt P00734)
# Technique: aptamer microarray, sandwich
# Form: DNA with 2'F-ANA
# Matrix: in vitro
# Tested at: 200 nM
# Setting: whole 15-mer aptamer, many near background
# Together with: Cy3 exosite-II aptamer, 400 nM
# Reading: higher = stronger binding
# Strand: GGTTGGTGTGGTTGG
Modification,mean fluorescence intensity
2'F-ANA at 1 3 5 6 9 15,60.6 a.u.
2'F-ANA at 1 6 7 8 11 14 15,58.8 a.u.
2'F-ANA at 1 3 5 6 8 9 10 12 13,50.8 a.u.
2'F-ANA at 1 2 3 4 5 7 8 14 15,48.4 a.u.
2'F-ANA at 2 5 7 10 13 15,61.9 a.u.
2'F-ANA at 7 9 11 13 15,354 a.u.
2'F-ANA at 1 3 4 8 11 12 13,296 a.u.
2'F-ANA at 1 3 4 6 9 12 13 15,214 a.u.
2'F-ANA at 2 4 5 6 7 8 9 12,246 a.u.
2'F-ANA at 2 4 6 11 12 14,106 a.u.
2'F-ANA at 3 4 5 8 9 10 11 13 15,51.3 a.u.

# Set 3
# Target: Histone acetyltransferase KAT6A, both winged helices, GST fusion (KAT6A, Homo sapiens, UniProt Q92794, residues 1-181)
# Technique: protein binding microarray
# Form: double-stranded DNA, one strand shown
# Matrix: in vitro
# Tested at: not given
# Setting: 8-mer, flanks averaged, mean of 2 arrays, mostly near background
# Reference: not given
# Reading: higher = stronger binding
# Residues (chain): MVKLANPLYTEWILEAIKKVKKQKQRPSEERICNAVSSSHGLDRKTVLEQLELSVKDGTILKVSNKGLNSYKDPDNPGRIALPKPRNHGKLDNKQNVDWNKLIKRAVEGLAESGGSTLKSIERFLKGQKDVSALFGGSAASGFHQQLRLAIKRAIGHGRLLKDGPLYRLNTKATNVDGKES
Strand,E-score
ATGGATCG,0.147
ATCAGCCC,-0.0657
ATCCGACG,0.204
CATATTCC,-0.0388
TCGTAACA,-0.0067
CTCTCCGA,0.0393
AACGTAGT,-0.0895
TCAGTTAA,-0.141
CAAACGAA,0.032
GACCTTCC,0.0404
AATGGTAG,-0.131

# Mixed results
Substance,target,assay,test system,setting,how to read,quantity,value
"PhoQ, residues 284 288 289 292 302 303 GNNTDL","PhoP, residues 12 14 15 18 19 LQHIR (Escherichia coli, UniProt P23836)","Sort-seq, item: YFP reporter",E. coli,"PhoQ-PhoP variant library, together with: 10 µM Mg2+","reference: high Mg2+ state, higher = stronger signaling",fold induction,5.42

# A few entries again (set 3):
Strand,E-score
CATATTCC,-0.0388
AACGTAGT,-0.0895
CTCTCCGA,0.0393
TCAGTTAA,-0.141
